# Measured values from different studies.
# Each numbered part is a random draw from the data of one study; scales do not carry over between parts.
# UniProt P42336, sequence (whole entry, unmodified, looked up): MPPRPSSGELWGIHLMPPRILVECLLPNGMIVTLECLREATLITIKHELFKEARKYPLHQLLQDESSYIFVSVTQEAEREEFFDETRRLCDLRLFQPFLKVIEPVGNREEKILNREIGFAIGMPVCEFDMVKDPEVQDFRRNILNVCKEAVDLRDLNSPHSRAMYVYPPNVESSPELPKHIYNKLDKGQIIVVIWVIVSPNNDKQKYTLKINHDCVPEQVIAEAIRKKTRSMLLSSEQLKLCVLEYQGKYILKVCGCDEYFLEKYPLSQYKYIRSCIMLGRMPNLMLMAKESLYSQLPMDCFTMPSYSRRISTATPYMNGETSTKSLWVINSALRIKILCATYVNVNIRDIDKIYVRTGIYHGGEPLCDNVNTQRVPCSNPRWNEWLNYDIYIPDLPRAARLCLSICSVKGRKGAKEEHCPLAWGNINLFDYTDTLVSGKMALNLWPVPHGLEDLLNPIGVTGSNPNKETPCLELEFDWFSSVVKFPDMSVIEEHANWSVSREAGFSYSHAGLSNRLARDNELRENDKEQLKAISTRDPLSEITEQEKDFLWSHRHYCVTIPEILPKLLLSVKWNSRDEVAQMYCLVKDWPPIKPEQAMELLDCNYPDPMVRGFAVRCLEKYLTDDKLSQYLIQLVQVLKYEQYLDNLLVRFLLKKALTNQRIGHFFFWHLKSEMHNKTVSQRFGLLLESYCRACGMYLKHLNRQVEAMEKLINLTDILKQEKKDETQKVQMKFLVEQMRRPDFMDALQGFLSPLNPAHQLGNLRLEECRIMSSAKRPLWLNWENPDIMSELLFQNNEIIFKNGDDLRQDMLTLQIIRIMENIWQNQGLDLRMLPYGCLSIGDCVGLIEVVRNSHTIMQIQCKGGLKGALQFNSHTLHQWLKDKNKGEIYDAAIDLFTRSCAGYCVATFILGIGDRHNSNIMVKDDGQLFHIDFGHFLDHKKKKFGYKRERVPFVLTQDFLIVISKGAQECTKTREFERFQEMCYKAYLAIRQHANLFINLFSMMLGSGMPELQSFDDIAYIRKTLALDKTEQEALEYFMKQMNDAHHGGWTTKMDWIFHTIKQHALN
# UniProt Q9H0K1, sequence (whole entry, looked up): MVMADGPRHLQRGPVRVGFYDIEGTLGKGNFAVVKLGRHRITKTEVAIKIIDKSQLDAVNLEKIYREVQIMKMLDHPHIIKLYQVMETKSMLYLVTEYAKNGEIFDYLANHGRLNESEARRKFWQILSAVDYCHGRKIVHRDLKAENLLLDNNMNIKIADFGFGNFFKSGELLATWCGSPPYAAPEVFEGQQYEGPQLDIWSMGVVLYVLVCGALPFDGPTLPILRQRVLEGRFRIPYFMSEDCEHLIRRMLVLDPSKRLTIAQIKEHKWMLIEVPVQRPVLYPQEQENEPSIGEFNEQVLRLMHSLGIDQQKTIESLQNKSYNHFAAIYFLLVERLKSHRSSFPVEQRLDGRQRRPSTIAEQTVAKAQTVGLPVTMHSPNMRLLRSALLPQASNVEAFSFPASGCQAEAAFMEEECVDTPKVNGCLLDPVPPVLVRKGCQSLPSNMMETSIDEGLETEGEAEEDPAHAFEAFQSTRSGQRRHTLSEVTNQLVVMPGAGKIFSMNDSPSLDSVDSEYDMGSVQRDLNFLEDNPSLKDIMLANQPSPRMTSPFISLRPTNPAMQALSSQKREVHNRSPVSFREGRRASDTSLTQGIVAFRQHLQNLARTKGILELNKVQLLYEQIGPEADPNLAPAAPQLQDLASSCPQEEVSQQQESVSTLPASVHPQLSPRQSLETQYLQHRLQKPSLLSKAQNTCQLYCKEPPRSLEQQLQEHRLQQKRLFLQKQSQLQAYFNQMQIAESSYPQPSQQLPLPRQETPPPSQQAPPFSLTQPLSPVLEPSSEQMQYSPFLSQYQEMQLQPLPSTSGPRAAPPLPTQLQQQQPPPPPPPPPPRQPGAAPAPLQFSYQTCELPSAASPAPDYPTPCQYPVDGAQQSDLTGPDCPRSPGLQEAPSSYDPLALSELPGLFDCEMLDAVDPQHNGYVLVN
# UniProt Q9BYP7, sequence (whole entry, looked up): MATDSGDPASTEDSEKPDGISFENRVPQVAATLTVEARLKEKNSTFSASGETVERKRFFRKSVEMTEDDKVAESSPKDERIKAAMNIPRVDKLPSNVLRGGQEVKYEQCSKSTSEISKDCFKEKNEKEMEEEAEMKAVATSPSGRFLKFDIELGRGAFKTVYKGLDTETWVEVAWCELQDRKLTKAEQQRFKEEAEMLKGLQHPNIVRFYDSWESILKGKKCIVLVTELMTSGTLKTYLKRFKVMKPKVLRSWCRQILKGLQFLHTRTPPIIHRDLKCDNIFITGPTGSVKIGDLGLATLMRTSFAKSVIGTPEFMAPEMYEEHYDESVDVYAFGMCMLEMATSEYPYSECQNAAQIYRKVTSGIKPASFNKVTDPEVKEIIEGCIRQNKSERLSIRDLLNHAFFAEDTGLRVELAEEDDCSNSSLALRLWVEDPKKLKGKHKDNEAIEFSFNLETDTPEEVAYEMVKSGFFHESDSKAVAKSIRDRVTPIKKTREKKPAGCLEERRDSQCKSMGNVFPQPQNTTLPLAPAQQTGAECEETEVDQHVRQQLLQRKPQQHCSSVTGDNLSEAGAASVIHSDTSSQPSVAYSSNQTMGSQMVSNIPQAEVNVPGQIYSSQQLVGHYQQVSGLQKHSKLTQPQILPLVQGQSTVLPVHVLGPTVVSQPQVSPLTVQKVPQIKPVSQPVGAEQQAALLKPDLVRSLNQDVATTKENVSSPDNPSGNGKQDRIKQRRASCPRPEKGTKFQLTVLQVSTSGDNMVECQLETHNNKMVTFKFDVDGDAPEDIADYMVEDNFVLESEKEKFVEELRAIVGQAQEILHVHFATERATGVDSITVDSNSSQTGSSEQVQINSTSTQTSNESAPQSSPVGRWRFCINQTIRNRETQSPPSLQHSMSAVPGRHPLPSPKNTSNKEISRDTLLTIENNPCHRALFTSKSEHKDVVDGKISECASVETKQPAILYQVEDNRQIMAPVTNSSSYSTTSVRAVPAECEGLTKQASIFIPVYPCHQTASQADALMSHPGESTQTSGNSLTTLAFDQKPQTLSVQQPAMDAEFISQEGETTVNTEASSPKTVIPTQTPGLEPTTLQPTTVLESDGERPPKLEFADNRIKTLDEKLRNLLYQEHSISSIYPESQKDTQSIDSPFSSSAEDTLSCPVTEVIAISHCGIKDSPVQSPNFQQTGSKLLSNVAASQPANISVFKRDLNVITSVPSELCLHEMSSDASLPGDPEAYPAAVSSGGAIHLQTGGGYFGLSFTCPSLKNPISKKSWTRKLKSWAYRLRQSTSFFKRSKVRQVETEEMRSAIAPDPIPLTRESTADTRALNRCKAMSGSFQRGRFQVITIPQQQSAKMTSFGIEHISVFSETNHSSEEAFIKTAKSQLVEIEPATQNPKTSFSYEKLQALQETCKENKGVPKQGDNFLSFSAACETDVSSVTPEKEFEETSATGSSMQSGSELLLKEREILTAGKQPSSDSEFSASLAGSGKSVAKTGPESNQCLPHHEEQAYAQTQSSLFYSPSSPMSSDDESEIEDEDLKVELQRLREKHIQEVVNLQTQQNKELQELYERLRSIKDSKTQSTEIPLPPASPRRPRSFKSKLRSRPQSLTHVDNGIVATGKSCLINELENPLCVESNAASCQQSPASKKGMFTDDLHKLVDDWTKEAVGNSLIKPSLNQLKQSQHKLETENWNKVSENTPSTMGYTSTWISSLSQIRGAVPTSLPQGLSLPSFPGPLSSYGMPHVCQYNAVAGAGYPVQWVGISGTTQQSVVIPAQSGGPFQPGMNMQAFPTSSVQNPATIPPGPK
# UniProt Q99759, sequence (whole entry, looked up): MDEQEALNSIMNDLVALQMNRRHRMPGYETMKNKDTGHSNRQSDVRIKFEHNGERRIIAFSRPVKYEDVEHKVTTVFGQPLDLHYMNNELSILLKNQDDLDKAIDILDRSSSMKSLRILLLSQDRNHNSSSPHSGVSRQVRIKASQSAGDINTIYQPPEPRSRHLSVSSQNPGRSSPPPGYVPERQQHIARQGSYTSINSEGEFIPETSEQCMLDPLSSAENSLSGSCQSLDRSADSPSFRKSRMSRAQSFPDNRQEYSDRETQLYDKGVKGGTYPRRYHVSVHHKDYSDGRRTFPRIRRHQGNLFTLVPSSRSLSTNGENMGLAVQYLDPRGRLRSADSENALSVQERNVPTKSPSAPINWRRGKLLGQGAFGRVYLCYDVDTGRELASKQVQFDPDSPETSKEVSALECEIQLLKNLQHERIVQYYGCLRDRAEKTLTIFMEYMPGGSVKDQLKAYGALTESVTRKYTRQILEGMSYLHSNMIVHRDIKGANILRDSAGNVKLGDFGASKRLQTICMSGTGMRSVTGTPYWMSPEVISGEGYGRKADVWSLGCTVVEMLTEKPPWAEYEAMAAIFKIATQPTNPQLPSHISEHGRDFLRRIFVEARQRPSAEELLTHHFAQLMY
# UniProt Q8WTQ7, sequence (whole entry, looked up): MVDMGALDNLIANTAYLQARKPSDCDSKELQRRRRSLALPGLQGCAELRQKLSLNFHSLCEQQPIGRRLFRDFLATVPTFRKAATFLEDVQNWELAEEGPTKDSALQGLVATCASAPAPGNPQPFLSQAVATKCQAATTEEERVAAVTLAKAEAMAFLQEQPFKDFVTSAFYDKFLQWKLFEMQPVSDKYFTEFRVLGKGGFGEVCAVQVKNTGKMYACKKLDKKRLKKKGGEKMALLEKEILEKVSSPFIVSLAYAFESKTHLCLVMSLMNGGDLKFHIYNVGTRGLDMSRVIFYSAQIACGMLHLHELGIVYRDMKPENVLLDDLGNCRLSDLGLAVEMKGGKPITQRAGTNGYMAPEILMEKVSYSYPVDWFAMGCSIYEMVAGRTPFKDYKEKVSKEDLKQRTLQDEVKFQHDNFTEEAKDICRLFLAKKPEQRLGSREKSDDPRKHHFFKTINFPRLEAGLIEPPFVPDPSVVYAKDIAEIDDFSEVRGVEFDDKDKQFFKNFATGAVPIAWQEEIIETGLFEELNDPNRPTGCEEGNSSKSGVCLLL

# Set 1 — cell line: HaCaT; tested at: 100 µM; time: 36 h
SMILES,viability [%]
Nc1ncnc2c1ncn2[C@@H]1O[C@H](CO)[C@@H](O)[C@H]1O,93.9
Oc1c(I)cc(Cl)c2cccnc12,5.7
CC(C)n1c(/C=C/[C@H](O)C[C@H](O)CC(=O)O)c(-c2ccc(F)cc2)c2ccccc21 (racemic),20.3
COc1cc2c(cc1OC)CC(=O)N(CCCN(C)C[C@H]1Cc3cc(OC)c(OC)cc31)CC2,93.2
C/C(O)=C(\C#N)C(=O)Nc1ccc(C(F)(F)F)cc1,62.6
C[N+]1(C)[C@@H]2CC[C@H]1C[C@@H](OC(=O)C(O)c1ccccc1)C2 (stereo partly drawn),49.2
CCOC(=O)C1=C(COCCN)NC(C)=C(C(=O)OC)[C@@H]1c1ccccc1Cl,6.52
OC(CCN1CCCCC1)(c1ccccc1)C1C[C@@H]2C=C[C@H]1C2 (stereo partly drawn),5.21
Cc1cn(-c2cc(NC(=O)c3ccc(C)c(Nc4nccc(-c5cccnc5)n4)c3)cc(C(F)(F)F)c2)cn1,5.79
CN(C)CC(c1ccc(O)cc1)C1(O)CCCCC1 (stereo not drawn),84.3
NC(=O)N1c2ccccc2CC(=O)c2ccccc21,69.7
COc1cc2c(cc1OC)[C@@H]1Cc3ccc(OC)c(OC)c3CN1CC2,82.9
C[N+]1(C)[C@@H]2C[C@@H](OC(=O)C(O)(c3cccs3)c3cccs3)C[C@H]1[C@@H]1O[C@@H]12,117
CC(C)C[C@H](NC(=O)[C@H](CCc1ccccc1)NC(=O)CN1CCOCC1)C(=O)N[C@@H](Cc1ccccc1)C(=O)N[C@@H](CC(C)C)C(=O)[C@@]1(C)CO1,9.71
O=S(=O)(O)Oc1ccc(C(c2ccc(OS(=O)(=O)O)cc2)c2ccccn2)cc1,99.1
Cc1cc(=O)n(-c2ccccc2)n1C,95.9
O=C1C(CC[S+]([O-])c2ccccc2)C(=O)N(c2ccccc2)N1c1ccccc1 (stereo not drawn),87.8

# Set 2 — species: cancer patients; medium: plasma; route: oral; time: cycle 0 day -3; setting: single dose
# Structure (SMILES): COc1ccc(-c2c(Nc3ccccn3)[nH]c3c(C4=CCCCC4)c(-c4ccccc4)nn3c2=O)cc1
dose,"terminal half-life, median [h]"
50 mg,17.8
200 mg,38.4
400 mg,16.2
100 mg,29.1
150 mg,32.7

# Set 3 — species: mouse; medium: microsomes or S9; tested at: 2 µM; time: 0.5 h
Compound,remaining compound
CCOc1nnc(Cc2ccccc2)c2ccccc12,2.23%
O=c1ccc(-c2ccc(S(=O)(=O)Nc3cc(F)ccc3F)o2)n[nH]1,52.5%
O=C(c1ccc(Cn2ccn3nc4c(c3c2=O)CCCC4)cc1)N1CCN(c2ccccc2F)CC1,5.21%
CN(CC(C)(CO)CO)c1ccnc(C(C)(C)C)n1,60.4%
O=C1CCC(C(=O)N2CCOC(c3ccsc3)C2)n2cccc21 (stereo not drawn),59.6%
CC1CCN(C=C(S(=O)(=O)c2ccccc2)S(=O)(=O)c2ccccc2)CC1,1.7%
N#Cc1ccc(-c2ccccc2CCOc2ncccn2)cc1,2.46%
CCOC(=O)c1[nH]c(C)c(CN(Cc2ccccc2)C(=O)CCC(=O)O)c1C,2.3%
O=C(NCCCN1CCN(c2ccccc2F)CC1)c1ccc2c(c1)N(Cc1ccccc1)C(=O)c1ccccc1[S+]2[O-] (stereo not drawn),0.499%
Cc1cc2c(cc1CNC1(c3ccccc3F)CCCC1)OCO2,0.0141%
Cn1cc(S(=O)(=O)Nc2nc3ccccc3nc2Nc2cc(Cl)ccc2O)cn1,49.7%
CC(C)(C)/C(=C/c1ccc(Cl)cc1)Cn1ccnc1,97.8%
NS(=O)(=O)c1ccc(CCNCc2cccc(Oc3nnnn3-c3ccccc3)c2)cc1,27%
COc1ccccc1Cn1c(C(=O)NCC2CC2)cc2sccc21,0.0537%
CC(C)C(C)(NC(=O)c1ccccc1C#Cc1ccccc1)C(N)=O (stereo not drawn),41.9%
CCCOc1ccc2c(c1)C(O)CC1(CCNCC1)O2 (stereo not drawn),66.8%

# Set 4 — technique: competition with immobilised ligand; tested at: 1 µM
# SMILES: Cc1c(C(=O)O)cc(-c2ccc(C3CCNCC3)cc2)c2ccc(-c3ccc(C(F)(F)F)cc3)cc12
target,observed,remaining binding [%]
"High affinity nerve growth factor receptor (NTRK1, Homo sapiens, UniProt P04629)",cell-free assay,100
"Death-associated protein kinase 2 (DAPK2, Homo sapiens, UniProt Q9UIK4)",binding,100
"Ephrin type-A receptor 3 (EPHA3, Homo sapiens, UniProt P29320)",cell-free assay,100
"Serine/threonine-protein kinase 36 (STK36, Homo sapiens, UniProt Q9NRP7)",binding,86
"Serine/threonine-protein kinase tousled-like 1 (TLK1, Homo sapiens, UniProt Q9UKI8)",cell-free assay,100
"Tyrosine-protein kinase ABL1, non-phosphorylated (ABL1, Homo sapiens, UniProt P00519, F317L)",binding,100
"Atypical kinase COQ8B, mitochondrial (COQ8B, Homo sapiens, UniProt Q96D53)",cell-free assay,100
"Serine/threonine-protein kinase PAK 6 (PAK6, Homo sapiens, UniProt Q9NQU5)",cell-free assay,100
"5'-AMP-activated protein kinase catalytic subunit alpha-2 (PRKAA2, Homo sapiens, UniProt P54646)",cell-free assay,100
"Death-associated protein kinase 1 (DAPK1, Homo sapiens, UniProt P53355)",binding,100
"Serine/threonine-protein kinase WNK2 (WNK2, Homo sapiens, UniProt Q9Y3S1)",binding,100
"Phosphatidylinositol 4,5-bisphosphate 3-kinase catalytic subunit alpha isoform (PIK3CA, Homo sapiens, UniProt P42336)",cell-free assay,100
"Serine/threonine-protein kinase WNK3 (WNK3, Homo sapiens, UniProt Q9BYP7)",binding,100
"Phosphatidylinositol 4,5-bisphosphate 3-kinase catalytic subunit alpha isoform (PIK3CA, Homo sapiens, UniProt P42336, C420R)",cell-free assay,100
"Serine/threonine-protein kinase SIK2 (SIK2, Homo sapiens, UniProt Q9H0K1)",binding,100
"Tyrosine-protein kinase ABL1, phosphorylated (ABL1, Homo sapiens, UniProt P00519, Q252H)",binding,100
"Serine/threonine-protein kinase MARK1 (MARK1, Homo sapiens, UniProt Q9P0L2)",binding,100
"Serine/threonine-protein kinase Sgk3 (SGK3, Homo sapiens, UniProt Q96BR1)",binding,100
"TGF-beta receptor type-2 (TGFBR2, Homo sapiens, UniProt P37173)",cell-free assay,100
"Rhodopsin kinase GRK7 (GRK7, Homo sapiens, UniProt Q8WTQ7)",binding,91
"Mitogen-activated protein kinase kinase kinase 3 (MAP3K3, Homo sapiens, UniProt Q99759)",binding,98
"Cyclin-dependent kinase 8 (CDK8, Homo sapiens, UniProt P49336)",binding,100
"Cyclin-dependent kinase 17 (CDK17, Homo sapiens, UniProt Q00537)",binding,100
"Fibroblast growth factor receptor 3 (FGFR3, Homo sapiens, UniProt P22607, G697C)",cell-free assay,100
"Serine/threonine-protein kinase 33 (STK33, Homo sapiens, UniProt Q9BYT3)",binding,100

# Repeated from above (set 4):
target,observed,remaining binding [%]
"Tyrosine-protein kinase ABL1, phosphorylated (ABL1, Homo sapiens, UniProt P00519, Q252H)",binding,100
"Death-associated protein kinase 1 (DAPK1, Homo sapiens, UniProt P53355)",binding,100
"Serine/threonine-protein kinase SIK2 (SIK2, Homo sapiens, UniProt Q9H0K1)",binding,100
"Serine/threonine-protein kinase WNK3 (WNK3, Homo sapiens, UniProt Q9BYP7)",binding,100
"Serine/threonine-protein kinase tousled-like 1 (TLK1, Homo sapiens, UniProt Q9UKI8)",cell-free assay,100
"TGF-beta receptor type-2 (TGFBR2, Homo sapiens, UniProt P37173)",cell-free assay,100
"Phosphatidylinositol 4,5-bisphosphate 3-kinase catalytic subunit alpha isoform (PIK3CA, Homo sapiens, UniProt P42336)",cell-free assay,100
"Serine/threonine-protein kinase PAK 6 (PAK6, Homo sapiens, UniProt Q9NQU5)",cell-free assay,100
